Assay results collected from several papers.
Numbered parts are unrelated; each lists some results of a single study. Positions count from the first letter of the parent shown.

Block 1
Target: CCND2, cyclin fold, Cln2 fusion (human)
Method: yeast growth competition, sequencing
Sample: yeast
Setting: weak parent motif
Relative to: not given
Direction: higher = stronger binding
Starting sequence: CDKN1B docking peptide (human); PSACRNLFGPVDH
`PVACRNLFGPVDH [S2V]` — result for “normalised enrichment score”: 0.353.
For `PSACRNHFGPVDH [L7H]`, “normalised enrichment score” read 0.0616.
`PSAYRNLFGPVDH [C4Y]` — result for “normalised enrichment score”: 0.0855.
Under “normalised enrichment score”, `PSACRNLTGPVDH [F8T]` is recorded as 0.154.
Under “normalised enrichment score”, `PSACENLFGPVDH [R5E]` is recorded as 0.0833.

Block 2
Target: Histone acetyltransferase KAT6A, both winged helices, GST fusion (KAT6A, Homo sapiens, UniProt Q92794, residues 1-181)
Method: protein binding microarray
Molecule type: double-stranded DNA, one strand shown
Sample: in vitro
Concentration: not given
Setting: 8-mer, flanks averaged, mean of 2 arrays, mostly near background
Relative to: not given
Direction: higher = stronger binding
Residues (chain): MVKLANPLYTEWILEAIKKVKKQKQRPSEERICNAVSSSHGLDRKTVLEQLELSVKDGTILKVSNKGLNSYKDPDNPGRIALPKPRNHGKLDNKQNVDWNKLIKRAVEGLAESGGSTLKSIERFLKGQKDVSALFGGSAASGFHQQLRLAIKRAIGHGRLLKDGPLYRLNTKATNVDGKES
For `GCGCAGGA`, the E-score was 0.153.
For `GCGTGGCC`, the E-score was 0.15.
`AAGAGCTA` has an E-score of -0.206.
The E-score of `GAGGGATC` is reported as -0.0551.
`ATTTGGCG` has an E-score of 0.00352.
`GCATAATA` has an E-score of 0.0396.
With `CTGAGTAA` the E-score was -0.182.

Block 3
Target: ABI1, truncated, D143A, DHFR fusion (Arabidopsis thaliana)
Method: DHFR PCA, deep sequencing
Sample: yeast
Setting: methotrexate growth selection, single substitutions
Together with: (+)-ABA 0.39 µM
Relative to: wild-type fitted maximum
Direction: higher = stronger binding
Starting sequence: PYL1, truncated, DHFR fusion (Arabidopsis thaliana); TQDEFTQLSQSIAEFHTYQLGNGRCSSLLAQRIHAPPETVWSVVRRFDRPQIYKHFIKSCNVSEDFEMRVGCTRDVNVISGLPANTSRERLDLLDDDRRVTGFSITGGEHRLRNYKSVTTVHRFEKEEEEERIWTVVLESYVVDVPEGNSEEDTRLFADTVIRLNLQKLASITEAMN
For `R132C`, “relative binding score” read 63.2%.
For `R74W`, “relative binding score” read -3.17%.
`E14I`: “relative binding score” -3.52%.
`D92K`: “relative binding score” -0.592%.
`T39Q` — result for “relative binding score”: 23.3%.
Under “relative binding score”, `H110K` is recorded as 20%.
`H34R`: “relative binding score” 41.4%.
Under “relative binding score”, `T120Y` is recorded as -7.96%.

Other studies, line by line
The fold induction of `PhoQ, residues 284 288 289 292 302 303 SASVAL` is reported as 10.4 (PhoP, residues 12 14 15 18 19 VHSCL (Escherichia coli, UniProt P23836); Sort-seq, measured: YFP reporter; E. coli; PhoQ-PhoP variant library, together with: 10 µM Mg2+; relative to: high Mg2+ state, higher = stronger signaling).

A few entries again (block 1):
Under “normalised enrichment score”, `PSACRNLTGPVDH [F8T]` is recorded as 0.154.
Under “normalised enrichment score”, `PSACENLFGPVDH [R5E]` is recorded as 0.0833.
